{"data": "Measured values collected from several papers", "note": "Lines come from different studies, so protocols differ. ± marks the error that the study gave."}
{"Compound": "Cc1cc(-n2cc(C(N)=O)c(=O)c3cc(CCc4cnc(C)nc4)ccc32)sn1", "test system": "rat, plasma", "quantity": "unbound fraction", "value": 0.22}
{"Compound": "O=C1Nc2cccc(C#CC3(O)CCNCC3)c2/C1=C/c1cc2ccccc2[nH]1", "test system": "mouse, tumour model", "conditions": "intraperitoneal, 10 mg/kg daily", "quantity": "body weight", "value": "no effect"}
{"Compound": "O=C(OC(C(F)(F)F)C(F)(F)F)N1Cc2ccc(Br)cc2C1", "test system": "male CD-1 mouse, plasma", "conditions": "oral, 8 mg/kg, 60 min, cassette dosing", "quantity": "plasma concentration", "value": "2 ± 1 ng/mL"}
{"Compound": "[O-][S+](CC1CS1)c1ccc(Oc2ccccc2)cc1 (single isomer, unassigned)", "conditions": "3 d, room temperature, together with: DBU", "quantity": "chemical stability", "value": "stable"}
{"Compound": "COc1ccc2c(c1)S(=O)(=O)N(CCCCCc1ccccc1)C(=O)O2", "test system": "DPBS and DMEM", "quantity": "chemical stability", "value": "stable"}
{"Compound": "COCCOc1ccc2nc(-c3cn(-c4ccc(O)cc4)nn3)ccc2c1", "test": "shake-flask", "test system": "Britton-Robinson buffer", "conditions": "48 h, pH 6.5, 30 °C", "quantity": "aqueous solubility", "value": "9.9 µM"}
{"Compound": "NC(=O)c1cn(-c2ccc(F)cc2)c2ccc(CCc3cccnc3)cc2c1=O", "test system": "rat, plasma", "quantity": "unbound fraction", "value": 0.062}
{"Compound": "CC(C)(C)NC(=O)C(c1c(C(=O)O)[nH]c2cc(Cl)ccc12)N(C=O)Cc1cc(F)c(F)c(F)c1 (racemic)", "test system": "water", "quantity": "aqueous solubility", "value": "850 µg/mL"}
{"Compound": "Cc1n[nH]c(C)c1CCOC(=O)c1cccc2c1oc(=O)n2C", "test system": "BALB/c mouse, plasma", "conditions": "intravenous, 2 mg/kg", "quantity": "volume of distribution", "value": "0.61 L/kg"}
{"Compound": "Nc1ncc(-c2ccc3ncnc(N4CCc5cc(F)c(Cl)cc54)c3c2)cn1", "test system": "CD1 mouse, brain", "conditions": "intraperitoneal, 50 mg/kg", "quantity": "Cmax", "value": "13300 ng/mL"}
{"Compound": "COC(=O)CC[C@H](NC(=O)c1ccc(N(C)Cc2cnc3nc(N)nc(N)c3n2)cc1)C(=O)OC", "quantity": "logP", "value": 1.47}
{"Compound": "Cc1cc(NC(=O)c2cccc(NC(=O)C3=CC(C)(C)CCC3=O)c2)ccc1Nc1nccc(-c2cccnc2)n1", "test system": "rat plasma", "conditions": "1 µM, 60 min", "quantity": "compound remaining", "value": "98.4%"}
{"Compound": "CCCc1ccc(-c2ccc(C3=N[C@@H](C(=O)NO)CO3)cc2)cc1", "test system": "aqueous buffer", "conditions": "pH 7.4", "quantity": "solubility", "value": "< 3480 µg/mL"}
{"Compound": "CC(C)n1nnc(-c2cc(O)cc(Nc3ncnn4ccc(CN5CCC(N)CC5)c34)c2)n1", "test system": "mouse", "conditions": "subcutaneous, 60 mg/kg, 90 min", "quantity": "brain to plasma ratio", "value": 0.01}
{"Compound": "NC(=O)c1cn(-c2ccc(F)cc2)c2ccc(NCCc3ccncc3)cc2c1=O", "test system": "rat, plasma", "quantity": "unbound fraction", "value": 0.172}
{"Compound": "NC1CCN(Cc2ccn3ncnc(Nc4cccc(-c5cnco5)c4)c23)CC1", "test system": "mouse", "conditions": "intraperitoneal, 30 mg/kg, 90 min", "quantity": "brain to plasma ratio", "value": 0.22}
{"Compound": "CSc1cc(NC(=O)c2ccccn2)ccc1F", "test system": "rat liver microsomes", "quantity": "elimination rate constant", "value": "0.121 min⁻¹"}
{"Compound": "Cc1ncc(CCc2ccc3c(c2)c(=O)c(C(N)=O)cn3-c2ccc(F)cc2)cn1", "test system": "rat, plasma", "quantity": "unbound fraction", "value": 0.157}
{"Compound": "O=C(NO)[C@H]1COC(c2ccc(F)c(C(F)(F)F)c2)=N1", "test system": "octanol/buffer", "conditions": "pH 11", "quantity": "logD", "value": -0.21}
{"Compound": "CCCSc1nc(N[C@@H]2C[C@H]2c2ccc(F)c(F)c2)c2nnn([C@@H]3C[C@H](O)[C@@H](O)[C@H]3O)c2n1", "test system": "rat, female, plasma", "conditions": "oral, 20 mg/kg/day ticagrelor, day 1", "quantity": "AUC", "value": "5.4 µM·h"}
{"Compound": "Cc1c(-c2ccccc2)nn2c(=O)cc(-c3cccc(-c4nnn[nH]4)c3)[nH]c12", "test system": "mouse", "conditions": "2 mg/kg, 24 h", "quantity": "plasma level", "value": "not detected"}
{"Compound": "CCN(CC)c1ccc2c(-c3ccccc3C(=O)N(C)CCCC(=O)N[C@@H](CC(C)C)C(=O)N[C@@H](CCCNC(=N)N)C(=O)N[C@@H](CCCNC(=N)N)C(=O)N[C@@H](C)C(=O)N[C@@H](CO)C(=O)N[C@@H](CC(C)C)C(=O)NCC(=O)O)c3ccc(=[N+](CC)CC)cc-3oc2c1", "test": "UV/Vis", "test system": "phosphate buffer 25 mM", "conditions": "100 µM, pH 7.4, at λmax", "quantity": "molar extinction coefficient", "value": "39300 M⁻¹ cm⁻¹"}
{"Compound": "O=C(NO)C1CSC(c2ccc(F)cc2)=N1 (stereo not drawn)", "test system": "aqueous buffer", "conditions": "pH 7.4", "quantity": "solubility", "value": "37100 µg/mL"}
{"Compound": "O=C(O)c1cccc(-c2nc(-c3ccccc3F)c3sccn23)c1", "test system": "human liver microsomes", "conditions": "1 µM", "quantity": "CLint", "value": "30.2 µL/min/mg"}
{"Compound": "CCCn1c(NCc2cccc(Cl)c2O)nc2ccccc21", "test system": "mouse, liver microsomes", "conditions": "1 µM, 37 °C, together with: NADPH", "quantity": "half-life", "value": "3.7 min"}
{"Compound": "CCOc1ccccc1Nc1nnc(SCC(=O)Nc2cc(F)ccc2F)s1", "test": "UV-vis", "test system": "PBS with 1% DMSO", "conditions": "pH 7.4", "quantity": "kinetic solubility", "value": "125 µM"}
{"Compound": "CN(Cc1ccncc1)c1ccc2c(c1)c(=O)c(C(N)=O)cn2-c1ccc(F)cc1", "test system": "rat, plasma", "quantity": "unbound fraction", "value": 0.089}
{"Compound": "COc1ccc(CC(=O)OCc2ccc(-n3cccn3)cc2)cc1F", "test system": "BALB/c mouse, plasma", "conditions": "oral, 10 mg/kg", "quantity": "Cmax", "value": "3020 ng/mL"}
{"Compound": "O=C(NC1CC=C(c2cc3c(Nc4cc5ncsc5cc4F)ncnc3s2)CC1)NC1CCCCC1 (stereo not drawn)", "test system": "human liver microsomes", "conditions": "1 µM", "quantity": "intrinsic clearance", "value": "< 12 mL/min/g protein"}
{"Compound": "NC(=O)c1cn(-c2ccc(F)cc2)c2ccc(NCc3cccnc3)cc2c1=O", "test system": "rat, brain homogenate", "quantity": "fraction unbound", "value": 0.095}
{"Compound": "CCCCN(CCc1ccc(Cl)c(Cl)c1)C[C@H](O)COc1ccc(NS(C)(=O)=O)cc1", "test system": "rat", "conditions": "intraperitoneal, up to 300 mg/kg, 1 h habituation then two hours", "scale": "reference: vehicle", "quantity": "horizontal locomotor activity", "value": "no effect"}
{"Compound": "Cc1ncc(OCc2ccc3c(c2)c(=O)c(C(N)=O)cn3-c2ccc(F)cc2)cn1", "test system": "rat, plasma", "quantity": "fraction unbound", "value": "> 10%"}
{"Compound": "CN(C)c1ccc(C2=N[C@@H](C(=O)NO)CO2)cc1", "test system": "octanol/buffer", "conditions": "pH 11", "quantity": "logD", "value": "> 4.38"}
